{"data": "Experimental data collected from several papers", "note": "Parts stem from different laboratories: compare values within a part only."}
{"data": "Sample 1", "target": "Histone acetyltransferase KAT6A, both winged helices, GST fusion (KAT6A, Homo sapiens, UniProt Q92794, residues 1-181)", "technique": "protein binding microarray", "form": "double-stranded DNA, one strand shown", "matrix": "in vitro", "tested at": "not given", "notes": "8-mer, flanks averaged, mean of 2 arrays, mostly near background", "baseline": "not given", "reading": "higher = stronger binding", "Residues (chain)": "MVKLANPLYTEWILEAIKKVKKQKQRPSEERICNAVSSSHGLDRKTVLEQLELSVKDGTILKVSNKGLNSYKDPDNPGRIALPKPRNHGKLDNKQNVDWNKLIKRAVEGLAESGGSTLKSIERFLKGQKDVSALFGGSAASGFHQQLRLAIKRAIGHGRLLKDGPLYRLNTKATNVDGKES"}
{"Oligonucleotide": "CCTCGCGA", "E-score": 0.154}
{"Oligonucleotide": "CCGACGGC", "E-score": 0.398}
{"Oligonucleotide": "CCTAAGAG", "E-score": -0.242}
{"data": "Sample 2", "target": "Interferon regulatory factor 5, full length, phosphomimetic (IRF5, Homo sapiens, UniProt Q13568-2, residues 1-514, K96S/S451D/S453D/S456D/S462D)", "technique": "protein-binding microarray", "form": "double-stranded DNA, one strand shown", "matrix": "in vitro", "tested at": "250 nM", "notes": "60-bp whole probe", "together with": "salmon DNA 0.4 mg/ml", "baseline": "random background probes", "reading": "higher = stronger binding"}
{"Oligonucleotide": "GCCTAGCACGACGGTATCCTTATACTGACGTGCTAGGTCTTGATTCGCTTGACGCTGCTG", "log fluorescence [z-score]": -0.12}
{"Oligonucleotide": "GCCTAGCACGACGAACTGAGTATCAAGACGTGCTAGGTCTTGATTCGCTTGACGCTGCTG", "log fluorescence [z-score]": 0.0777}
{"Oligonucleotide": "GCCTAGCACCATCCAGCAGAGAGCCTCAGGTGCTAGGTCTTGATTCGCTTGACGCTGCTG", "log fluorescence [z-score]": -0.55}
{"data": "Sample 3", "target": "Sal-like protein 4, full length isoform B (SALL4, Homo sapiens, UniProt Q9UJQ4-2, residues 1-616)", "technique": "universal PBM", "form": "double-stranded DNA, one strand shown", "matrix": "in vitro", "tested at": "not given", "notes": "8-mer, flanks averaged, mean of replicates", "reading": "higher = stronger binding", "Construct (chain)": "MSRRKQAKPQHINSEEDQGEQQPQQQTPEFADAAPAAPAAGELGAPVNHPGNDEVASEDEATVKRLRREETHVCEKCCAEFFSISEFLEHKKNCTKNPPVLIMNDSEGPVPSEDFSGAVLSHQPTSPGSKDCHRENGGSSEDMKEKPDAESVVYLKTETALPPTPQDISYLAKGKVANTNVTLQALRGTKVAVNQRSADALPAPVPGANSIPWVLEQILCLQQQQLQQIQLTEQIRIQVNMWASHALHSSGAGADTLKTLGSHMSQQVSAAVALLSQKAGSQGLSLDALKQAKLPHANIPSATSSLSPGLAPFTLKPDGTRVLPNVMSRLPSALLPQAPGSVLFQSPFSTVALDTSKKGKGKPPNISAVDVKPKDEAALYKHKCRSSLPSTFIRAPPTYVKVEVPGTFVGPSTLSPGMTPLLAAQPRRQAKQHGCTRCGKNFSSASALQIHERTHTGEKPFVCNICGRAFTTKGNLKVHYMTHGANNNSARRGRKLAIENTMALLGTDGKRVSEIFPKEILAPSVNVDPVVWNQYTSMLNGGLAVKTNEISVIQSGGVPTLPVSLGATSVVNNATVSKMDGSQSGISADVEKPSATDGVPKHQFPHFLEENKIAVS"}
{"Oligonucleotide": "ATTGAGGG", "E-score": -0.0854}
{"Oligonucleotide": "GTGCGGCA", "E-score": -0.12}
{"Oligonucleotide": "TCTGTAAA", "E-score": 0.18}
{"Oligonucleotide": "TACGCGAA", "E-score": 0.0349}
{"Oligonucleotide": "ACGTGACG", "E-score": 0.0354}
{"Oligonucleotide": "GTCGCTAA", "E-score": 0.0283}
{"data": "Further values, each from its own experiment"}
{"Molecule": "PhoQ, residues 284 288 289 292 302 303 SLANIV", "target": "PhoP, residues 12 14 15 18 19 SEGLL (Escherichia coli, UniProt P23836)", "test": "Sort-seq, refers to: YFP reporter", "test system": "E. coli", "conditions": "PhoQ-PhoP variant library, together with: 10 µM Mg2+", "how to read": "baseline: high Mg2+ state, higher = stronger signaling", "endpoint": "fold induction", "result": 5.5}
